# Measurements gathered from unrelated publications.
# Each line is one published result; not all experiments were run side by side. ± gives the spread as reported.
Structure (SMILES),sample,tested at,time,intrinsic clearance
COc1ccc(C2(C(=O)Nc3ccc(C)c(-c4cccc(C(=O)O)c4)c3)CC2)cc1,human liver microsomes,,,36.1 mL/min/kg
O=C(Cc1ccc(Cl)c(Cl)c1)N(Cc1ccccc1)[C@@H]1CCCC[C@H]1N1CCCC1,mouse liver microsomes,,,1.1 mL/min/g
COc1ccc2nc(C)cc(OCC(=O)Nc3ccccc3OC)c2c1,mouse liver microsomes,,,> 30 mL/min/g
Cc1cnc(N)c(S(=O)(=O)N(C)CC(=O)Nc2ccc(OCCN(C)C)c(Cl)c2)c1,human liver microsomes,,,2 µL/min/mg
CC(C)(C)c1cc(C(C)(C)C)c(-n2cc(-c3cnc4ccccc4c3O)nn2)cc1O,human liver microsomes,,,56.2 mL/min/kg
CN(C(=O)Cc1ccc(Cl)c(Cl)c1)C(CN1CCCC1)c1ccccc1 (stereo in doubt),mouse liver microsomes,,,6.8 mL/min/g
Cc1cnc(N)c(S(=O)(=O)N(C)CC(=O)Nc2ccc(=O)n(C)c2)c1,human liver microsomes,,,-18 µL/min/mg
O=C(OCc1ccccc1)C(O)=CC(=O)c1ccccc1Br,mouse liver microsomes,0.5 µM,30 min,15.3 ± 6.1 mL/min/g
O=C(O)CCn1c(=O)oc2cc(Cl)c(Cl)cc21,human liver microsomes,,,< 0.5 mL/min/g
c1cc2c(s1)CCOC21CCN(Cc2ccc3c(c2)OCCO3)CC1,mouse liver microsomes,,,34.9 mL/min/g
CN(C(=O)Cc1ccc(-c2ccccc2)cc1)[C@@H]1CCCC[C@H]1N1CCCC1,mouse liver microsomes,,,2.7 mL/min/g
O=C(NC12CC3CC(CC(C3)C1)C2)c1cc2cc(Cl)ccc2[nH]1,mouse liver microsomes,,,3.3 mL/min/g
NC1CCN(C(=O)OC2CCCC3(C2)OOC2(O3)C3CC4CC(C3)CC2C4)CC1 (stereo not shown),mouse liver microsomes,,,155 µL/min/mg
COc1ccc(NC(=O)CN(C)S(=O)(=O)c2cc(C)cc3cn[nH]c23)cc1Cl,human liver microsomes,,,> 768 µL/min/mg
COc1ccc2nc(C)cc(OCC(=O)Nc3cc(C)cc(C)c3)c2c1,human liver microsomes,,,4.3 mL/min/g
NC1CC1c1ccc(NC(=O)c2cccc(NC(=O)OCc3ccccc3)c2)cc1 (stereo not shown),mouse liver microsomes,1 µM,,4.3 ± 0.7 µL/min/mg protein
Cc1cnc(N)c(S(=O)(=O)N(C)CC(=O)Nc2ccn(C)c(=O)c2)c1,human liver microsomes,,,13 µL/min/mg
CNc1nc(SC)nc2ccccc12,mouse liver microsomes,,,> 30 mL/min/g
Cc1ccc2nc(C)c(C(=O)NCc3ccc(C(F)(F)F)cc3)n2c1,rat liver microsomes,,,48 mL/min/g protein
Cc1ccc2nc(C(F)(F)F)c(C(=O)NCc3cccc(Cl)c3)n2c1,human liver microsomes,,,> 30 mL/min/g
O=C(Cc1ccc(Cl)c(Cl)c1)NCCN1CCCC1,human liver microsomes,,,0.6 mL/min/g
Cc1cc(S(=O)(=O)N(C)CC(=O)Nc2ccn(C)c(=O)c2)c2[nH]ncc2c1,human liver microsomes,,,-11 µL/min/mg
Cc1ccc2nc(C)c(C(=O)NCc3cccs3)n2c1,human liver microsomes,,,3.9 mL/min/g
COc1ccc(NC(=O)CN(C)S(=O)(=O)c2cc(C)cnc2N)cn1,human liver microsomes,,,6 µL/min/mg
CCc1ccc([C@@H]2C[C@H](C(F)(F)F)n3ncc(C(=O)NCc4ccc(OC)cc4)c3N2)cc1,human liver microsomes,,,1.8 mL/min/g

# Excerpt of the above:
Structure (SMILES),sample,tested at,time,intrinsic clearance
O=C(OCc1ccccc1)C(O)=CC(=O)c1ccccc1Br,mouse liver microsomes,0.5 µM,30 min,15.3 ± 6.1 mL/min/g
O=C(O)CCn1c(=O)oc2cc(Cl)c(Cl)cc21,human liver microsomes,,,< 0.5 mL/min/g
